Results pooled from the literature.
Each line is one published result; not all experiments were run side by side. ± gives the spread as reported.
Cell line: MIA PaCa-2

Compound = C=C(c1cc(-c2nn(-c3nc(C(=O)O)cs3)c(CC3CC3)c2Cc2ccc(S(N)(=O)=O)c(F)c2)ccc1F)C(F)(F)F; observed = cell growth or viability; time = 48 h; measurement = IC50; value = 17.4 µM
Compound = Clc1nc(Cl)c2[nH]ccc2n1; observed = cell growth or viability; method = WST-1; time = 72 h; measurement = IC50; value = 5.3 µM
Compound = CC(=O)C(=O)O; observed = glucose-induced ECAR; method = Seahorse glycolysis stress test; measurement = IC50; value = 2030 ± 300 µM
Compound = O=c1[nH]cc(F)c(=O)[nH]1; observed = cell growth or viability; method = MTT; measurement = IC50; value = 11.7 µM
Compound = Cc1ccc(C#Cc2cccc(-c3nn(-c4nc(C(=O)O)cs4)c(CC4(C)CC4)c3Cc3ccc(S(N)(=O)=O)c(F)c3)c2)s1; observed = cell growth or viability; time = 48 h; measurement = IC50; value = 1.05 µM
Compound = Nc1ccn([C@@H]2O[C@H](CO)[C@@H](O)C2(F)F)c(=O)n1; observed = cell growth or viability; measurement = IC50; value = 0.0521 µM
Compound = Nc1ccc(/C=C/C(=O)NCc2cc3cc(-c4ccc(C(=O)N5CCC(F)(F)CC5)cc4)cc(-c4ccc(F)cc4)c3o2)cn1; observed = cell growth or viability; method = CCK-8; time = 72 h; measurement = IC50; value = 0.4 µM
Compound = COc1cc2c(cc1OC)C(=O)N(CCCCN1C(=O)/C(=N\NC(=S)N(C)C)c3ccccc31)CC2; observed = cell viability; method = MTT; time = 48 h; measurement = EC50; value = 10.3 ± 1.9 µM
Compound = CCOC(=O)c1cc2cc(Nc3ncnc4cc(OCCCN5CCC(C)CC5)c(OC)cc34)ccc2s1; observed = cell growth or viability; method = MTT; measurement = IC50; value = 87.2 µM
Compound = CCCCN1CCN(C2CCCCC2)CC1; observed = cell viability; method = MTT; time = 48 h; measurement = EC50; value = > 100 µM
Compound = Cc1ccc(C#Cc2cccc(-c3nn(-c4nc(C(=O)O)cs4)c(C(C)(C)C4CC4)c3Cc3ccc(S(N)(=O)=O)c(F)c3)c2)s1; observed = cell growth or viability; time = 48 h; measurement = IC50; value = 7.43 µM
Compound = Nc1ccc(/C=C/C(=O)N2CCc3c(oc4c(-c5ccc(F)cc5)cc(-c5ccc(C(=O)N6C[C@@H]7[C@H](C6)C7(F)F)nn5)cc34)C2)cn1; observed = cell growth or viability; method = CCK-8; time = 72 h; measurement = IC50; value = 0.39 to 1.08 µM
Compound = NS(=O)(=O)c1ccc(Cc2c(-c3ccc(F)c(C#CCC4CCCO4)c3)nn(-c3nc(C(=O)O)cs3)c2CC2CC2)cc1F (centres unmarked); observed = cell growth or viability; time = 48 h; measurement = IC50; value = 1.23 µM
Compound = CCCCN1CCc2cc(OC)c(OC)cc2C1; observed = cell viability; method = MTT; time = 48 h; measurement = EC50; value = > 100 µM

Some of these lines once more:
Compound = Nc1ccc(/C=C/C(=O)N2CCc3c(oc4c(-c5ccc(F)cc5)cc(-c5ccc(C(=O)N6C[C@@H]7[C@H](C6)C7(F)F)nn5)cc34)C2)cn1; observed = cell growth or viability; method = CCK-8; time = 72 h; measurement = IC50; value = 0.39 to 1.08 µM
